{"data": "Assay results of several laboratories", "note": "Parts stem from different laboratories: compare values within a part only. Numbers after ± are the reported error.", "chain of UniProt P47898 (whole entry, looked up)": "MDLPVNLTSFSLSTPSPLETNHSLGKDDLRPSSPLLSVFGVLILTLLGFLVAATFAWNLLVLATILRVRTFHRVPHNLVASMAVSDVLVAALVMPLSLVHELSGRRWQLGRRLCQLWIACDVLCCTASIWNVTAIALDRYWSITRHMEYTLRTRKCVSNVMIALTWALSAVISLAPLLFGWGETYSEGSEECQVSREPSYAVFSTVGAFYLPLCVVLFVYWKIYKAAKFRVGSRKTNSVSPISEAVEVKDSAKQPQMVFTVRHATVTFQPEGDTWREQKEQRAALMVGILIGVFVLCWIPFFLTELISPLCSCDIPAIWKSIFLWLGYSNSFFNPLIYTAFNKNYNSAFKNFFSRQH"}
{"data": "Series 1", "Structure (SMILES)": "COc1cc(C(=O)N2CCC(N3CCN(C)CC3)CC2)ccc1Nc1ncc2c(n1)N(C)c1ccccc1C(=O)N2C", "effect on": "kinase activity"}
{"target": "CHK1", "conditions": "1 µM", "remaining activity [%]": "82 ± 9"}
{"target": "PKA", "conditions": "10 µM", "remaining activity [%]": "93 ± 3"}
{"target": "Aurora B", "conditions": "1 µM", "remaining activity [%]": "64 ± 1"}
{"target": "IRAK4", "conditions": "10 µM", "remaining activity [%]": "94 ± 4"}
{"target": "LCK", "conditions": "10 µM", "remaining activity [%]": "99 ± 5"}
{"target": "BTK", "conditions": "1 µM", "remaining activity [%]": "95 ± 21"}
{"target": "IR", "conditions": "1 µM", "remaining activity [%]": "104 ± 8"}
{"target": "IRR", "conditions": "1 µM", "remaining activity [%]": "80 ± 11"}
{"target": "ERK8", "conditions": "1 µM", "remaining activity [%]": "86 ± 1"}
{"target": "DYRK2", "conditions": "1 µM", "remaining activity [%]": "90 ± 5"}
{"data": "Series 2", "host": "human", "medium": "microsomes or S9", "tested at": "2 µM", "time": "0.5 h"}
{"Structure (SMILES)": "CCn1c(CO)nnc1[C@H]1C[C@@H](NC(=O)CCn2c(C)cccc2=O)C1", "remaining compound [%]": "> 100"}
{"Structure (SMILES)": "Cc1nc(COc2ccc(C(=O)Nc3ccc(S(=O)(=O)/N=c4/o[nH]c(C)c4C)cc3)cc2)cs1", "remaining compound [%]": 52.4}
{"Structure (SMILES)": "COc1nc(OCC(=O)c2ccccc2)nc(OC)c1Br", "remaining compound [%]": 6.53}
{"Structure (SMILES)": "CC(C)NS(=O)(=O)c1ccc2c(c1)nc(-c1ccncc1)n2C(C)C", "remaining compound [%]": 17}
{"Structure (SMILES)": "CC(C)Cn1c(NCCN(C)C)nc2c1c(=O)[nH]c(=O)n2C", "remaining compound [%]": "> 99"}
{"Structure (SMILES)": "Cc1nc(C)c(C(=O)N2C3CCC2Cn2c(nnc2-c2ccccc2)C3)s1 (centres unmarked)", "remaining compound [%]": "> 100"}
{"Structure (SMILES)": "CN(C)C(=O)COCC(=O)Nc1ccc(C#N)cc1", "remaining compound [%]": 86.4}
{"Structure (SMILES)": "COC1CCN(c2ncnc3c2c(Br)cn3S(=O)(=O)c2ccc(C)cc2)CC1", "remaining compound [%]": 4.12}
{"data": "Single results of other studies"}
{"Compound": "CC(C)n1cnc(-c2ccc(F)cc2)c1-c1ncc(C(=O)Nc2ccc(N3CCN(C)CC3)cc2)[nH]1", "system": "human, idiopathic pulmonary fibrosis", "conditions": "30 mg once daily, trial, treatment-emergent", "quantity": "patients with Osteoporosis", "result": "0%"}
{"Compound": "C[C@@H](c1cccc(C#N)c1)n1cc(Cl)cc(C(N)=O)c1=N", "target or system": "HTR5A (Homo sapiens, UniProt P47898)", "test": "ligand displacement", "conditions": "10 µM", "quantity": "inhibition", "result": "-12.9%"}
{"note": "For quick reference, copied from above (series 1):"}
{"target": "CHK1", "conditions": "1 µM", "remaining activity [%]": "82 ± 9"}
{"target": "PKA", "conditions": "10 µM", "remaining activity [%]": "93 ± 3"}
